Results of several laboratories.
Lines come from different studies, so protocols differ. Numbers after ± are the reported error.
Sequence of UniProt P31946 (whole entry, looked up): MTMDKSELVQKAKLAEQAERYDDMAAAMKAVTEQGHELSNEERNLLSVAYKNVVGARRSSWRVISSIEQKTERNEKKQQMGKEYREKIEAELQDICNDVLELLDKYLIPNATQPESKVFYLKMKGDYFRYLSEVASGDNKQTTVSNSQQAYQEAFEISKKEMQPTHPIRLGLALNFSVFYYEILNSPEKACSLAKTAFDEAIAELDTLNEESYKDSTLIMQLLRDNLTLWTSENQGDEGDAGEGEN
Sequence of UniProt P33913 (whole entry, unmodified, looked up): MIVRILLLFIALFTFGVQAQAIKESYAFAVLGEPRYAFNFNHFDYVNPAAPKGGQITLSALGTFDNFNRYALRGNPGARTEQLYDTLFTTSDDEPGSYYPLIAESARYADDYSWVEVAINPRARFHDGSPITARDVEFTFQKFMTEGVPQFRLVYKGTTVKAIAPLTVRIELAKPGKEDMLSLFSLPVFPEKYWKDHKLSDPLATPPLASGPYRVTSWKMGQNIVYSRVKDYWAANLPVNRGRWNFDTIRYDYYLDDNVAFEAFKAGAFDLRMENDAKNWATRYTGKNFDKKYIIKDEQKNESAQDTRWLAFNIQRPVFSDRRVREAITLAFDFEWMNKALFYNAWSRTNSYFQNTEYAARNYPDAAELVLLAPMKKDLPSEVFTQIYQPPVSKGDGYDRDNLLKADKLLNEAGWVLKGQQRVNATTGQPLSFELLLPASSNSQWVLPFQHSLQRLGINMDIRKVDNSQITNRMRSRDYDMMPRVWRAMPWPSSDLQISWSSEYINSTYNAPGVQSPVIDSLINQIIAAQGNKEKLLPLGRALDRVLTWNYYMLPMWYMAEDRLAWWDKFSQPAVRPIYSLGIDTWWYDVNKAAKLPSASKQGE
Sequence of UniProt Q9HB29 (whole entry, looked up): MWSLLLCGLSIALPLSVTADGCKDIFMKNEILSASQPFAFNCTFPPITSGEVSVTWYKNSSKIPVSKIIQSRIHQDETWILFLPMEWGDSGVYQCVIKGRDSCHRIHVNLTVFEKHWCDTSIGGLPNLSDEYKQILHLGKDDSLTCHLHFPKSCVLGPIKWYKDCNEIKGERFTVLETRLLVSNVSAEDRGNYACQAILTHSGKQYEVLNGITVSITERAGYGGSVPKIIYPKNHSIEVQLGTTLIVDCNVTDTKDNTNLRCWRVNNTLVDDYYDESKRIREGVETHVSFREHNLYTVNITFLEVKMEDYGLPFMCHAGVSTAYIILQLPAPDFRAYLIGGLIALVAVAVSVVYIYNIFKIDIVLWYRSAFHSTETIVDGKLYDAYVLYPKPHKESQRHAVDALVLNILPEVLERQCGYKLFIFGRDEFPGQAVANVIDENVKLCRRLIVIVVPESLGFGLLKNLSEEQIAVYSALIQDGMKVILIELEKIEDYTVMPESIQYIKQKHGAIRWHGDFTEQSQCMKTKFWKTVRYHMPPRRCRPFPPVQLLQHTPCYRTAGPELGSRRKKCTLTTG
Sequence of UniProt Q13315 (whole entry, looked up): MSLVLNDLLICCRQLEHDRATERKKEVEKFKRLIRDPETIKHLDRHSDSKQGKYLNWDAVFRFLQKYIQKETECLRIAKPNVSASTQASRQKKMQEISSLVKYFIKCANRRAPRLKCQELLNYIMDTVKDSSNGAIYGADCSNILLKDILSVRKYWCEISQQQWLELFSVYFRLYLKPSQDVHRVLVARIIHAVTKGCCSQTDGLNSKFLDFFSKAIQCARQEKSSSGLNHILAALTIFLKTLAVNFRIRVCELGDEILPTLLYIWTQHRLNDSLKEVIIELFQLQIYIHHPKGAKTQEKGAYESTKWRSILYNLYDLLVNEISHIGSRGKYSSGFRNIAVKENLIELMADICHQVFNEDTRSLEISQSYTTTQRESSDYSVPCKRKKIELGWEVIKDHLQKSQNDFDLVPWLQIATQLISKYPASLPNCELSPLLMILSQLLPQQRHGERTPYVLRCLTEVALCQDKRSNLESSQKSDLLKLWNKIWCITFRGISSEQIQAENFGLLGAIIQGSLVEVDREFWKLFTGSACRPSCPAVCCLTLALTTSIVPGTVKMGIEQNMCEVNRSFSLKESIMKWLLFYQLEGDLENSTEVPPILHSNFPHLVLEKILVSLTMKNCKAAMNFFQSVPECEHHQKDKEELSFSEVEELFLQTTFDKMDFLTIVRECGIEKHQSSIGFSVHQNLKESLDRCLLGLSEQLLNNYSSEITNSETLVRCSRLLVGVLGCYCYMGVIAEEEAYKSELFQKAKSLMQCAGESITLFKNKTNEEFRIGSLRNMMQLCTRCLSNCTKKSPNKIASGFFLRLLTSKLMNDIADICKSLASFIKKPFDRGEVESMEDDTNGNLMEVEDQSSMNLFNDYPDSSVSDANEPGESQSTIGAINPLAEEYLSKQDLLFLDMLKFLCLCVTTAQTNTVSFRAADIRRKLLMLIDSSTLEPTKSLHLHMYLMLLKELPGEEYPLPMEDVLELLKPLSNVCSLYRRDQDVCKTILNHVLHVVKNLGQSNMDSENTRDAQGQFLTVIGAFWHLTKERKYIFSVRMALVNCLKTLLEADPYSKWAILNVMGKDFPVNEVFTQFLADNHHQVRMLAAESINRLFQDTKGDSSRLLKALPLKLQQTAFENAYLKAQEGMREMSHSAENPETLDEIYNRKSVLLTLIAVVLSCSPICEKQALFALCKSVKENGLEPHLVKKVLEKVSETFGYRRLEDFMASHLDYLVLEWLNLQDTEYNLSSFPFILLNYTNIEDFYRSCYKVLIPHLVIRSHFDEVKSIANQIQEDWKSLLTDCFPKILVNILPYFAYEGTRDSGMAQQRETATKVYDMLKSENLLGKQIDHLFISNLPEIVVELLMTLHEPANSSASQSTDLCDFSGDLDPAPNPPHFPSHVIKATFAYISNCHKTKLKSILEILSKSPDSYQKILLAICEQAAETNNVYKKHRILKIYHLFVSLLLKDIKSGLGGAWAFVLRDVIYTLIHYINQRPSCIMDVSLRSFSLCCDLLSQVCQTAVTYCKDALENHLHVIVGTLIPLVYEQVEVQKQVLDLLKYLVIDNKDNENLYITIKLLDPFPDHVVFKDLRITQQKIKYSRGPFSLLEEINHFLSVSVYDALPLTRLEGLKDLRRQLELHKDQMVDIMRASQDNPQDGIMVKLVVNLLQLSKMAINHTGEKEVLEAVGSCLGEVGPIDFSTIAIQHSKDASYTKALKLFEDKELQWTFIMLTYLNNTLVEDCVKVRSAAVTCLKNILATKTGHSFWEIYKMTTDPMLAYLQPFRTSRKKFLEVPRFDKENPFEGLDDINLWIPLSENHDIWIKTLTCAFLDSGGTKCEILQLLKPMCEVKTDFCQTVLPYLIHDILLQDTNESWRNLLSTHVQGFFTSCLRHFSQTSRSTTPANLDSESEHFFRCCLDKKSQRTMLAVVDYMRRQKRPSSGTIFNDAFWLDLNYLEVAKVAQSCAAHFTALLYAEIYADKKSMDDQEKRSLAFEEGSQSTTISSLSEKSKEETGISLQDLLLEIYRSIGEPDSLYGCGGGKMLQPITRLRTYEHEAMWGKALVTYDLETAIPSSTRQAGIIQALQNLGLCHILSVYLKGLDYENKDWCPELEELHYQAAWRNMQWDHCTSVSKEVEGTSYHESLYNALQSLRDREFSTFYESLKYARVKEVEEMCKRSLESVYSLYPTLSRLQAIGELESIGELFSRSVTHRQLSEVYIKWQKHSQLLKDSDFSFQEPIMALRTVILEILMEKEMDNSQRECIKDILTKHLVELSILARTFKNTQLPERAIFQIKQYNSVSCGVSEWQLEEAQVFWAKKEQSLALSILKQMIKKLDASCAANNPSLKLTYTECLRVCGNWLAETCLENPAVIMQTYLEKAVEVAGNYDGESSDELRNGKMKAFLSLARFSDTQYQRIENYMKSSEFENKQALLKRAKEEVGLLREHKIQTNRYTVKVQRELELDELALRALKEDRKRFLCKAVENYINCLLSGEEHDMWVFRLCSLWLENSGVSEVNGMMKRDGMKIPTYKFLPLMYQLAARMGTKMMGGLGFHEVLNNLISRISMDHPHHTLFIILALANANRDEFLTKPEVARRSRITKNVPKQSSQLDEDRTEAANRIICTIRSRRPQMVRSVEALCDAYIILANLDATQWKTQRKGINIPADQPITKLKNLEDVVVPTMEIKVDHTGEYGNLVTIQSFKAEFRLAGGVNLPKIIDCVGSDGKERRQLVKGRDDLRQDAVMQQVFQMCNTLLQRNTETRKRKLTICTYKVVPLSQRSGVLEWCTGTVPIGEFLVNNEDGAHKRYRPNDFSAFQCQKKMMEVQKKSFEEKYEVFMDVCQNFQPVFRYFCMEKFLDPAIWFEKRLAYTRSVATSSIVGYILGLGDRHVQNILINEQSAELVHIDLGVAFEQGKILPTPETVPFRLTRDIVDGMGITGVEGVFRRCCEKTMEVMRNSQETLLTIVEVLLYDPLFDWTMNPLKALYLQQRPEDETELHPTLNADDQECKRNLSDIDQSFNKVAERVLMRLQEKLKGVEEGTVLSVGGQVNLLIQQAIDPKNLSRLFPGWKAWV
Sequence of UniProt Q07817 (whole entry, looked up): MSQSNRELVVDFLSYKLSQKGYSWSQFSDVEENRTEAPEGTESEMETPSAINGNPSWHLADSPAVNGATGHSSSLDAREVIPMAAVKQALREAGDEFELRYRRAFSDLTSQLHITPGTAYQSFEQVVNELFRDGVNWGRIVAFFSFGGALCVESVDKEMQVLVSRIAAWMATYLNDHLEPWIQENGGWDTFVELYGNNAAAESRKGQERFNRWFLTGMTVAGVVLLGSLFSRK

With `CC[C@H](C)[C@H](NC(=O)[C@H](Cc1ccccc1)NC(=O)[C@H](CCC(=O)O)NC(=O)[C@H](CCCNC(=N)N)NC(=O)[C@@H](NC(=O)[C@H](C)NC(=O)[C@H](CCC(=O)O)NC(=O)[C@H](CCC(=O)O)NC(=O)[C@H](CCC(=O)O)NC(=O)[C@H](CC(C)C)NC(=O)[C@H](Cc1ccc(O)cc1)NC(=O)[C@H](CCCCN)NC(=O)[C@H](CO)NC(=O)[C@H](CC(C)C)NC(=O)[C@H](CC(=O)O)NC(=O)[C@H](CO)NC(=O)[C@@H](NC(=O)[C@H](Cc1ccccc1)NC(=O)[C@@H](NC(=O)CNC(=O)[C@H](CCC(N)=O)NC(=O)[C@@H](CO)NC(=O)[C@@H](N)Cc1c[nH]cn1)[C@@H](C)O)[C@@H](C)O)C(C)C)C(=O)N[C@@H](C)C(=O)N[C@@H](Cc1c[nH]c2ccccc12)C(=O)N[C@@H](CC(C)C)C(=O)N[C@@H](CCCCN)C(=O)N[C@@H](CC(N)=O)C(=O)NCC(=O)NCC(=O)N1CCC[C@H]1C(=O)N[C@@H](CO)C(=O)N[C@@H](Cc1ccc(O)cc1)C(=O)N[C@@H](CO)C(=O)N[C@@H](CCSC)C(=O)N[C@@H](CCC(=O)O)C(=O)N[C@@H](Cc1c[nH]cn1)C(=O)N[C@@H](Cc1ccccc1)C(=O)N[C@@H](CCCNC(=N)N)C(=O)N[C@@H](Cc1c[nH]c2ccccc12)C(=O)NCC(=O)N[C@@H](CCCCN)C(=O)N1CCC[C@H]1C(=O)N[C@H](C(N)=O)C(C)C` the Kd was 0.0099 µM (GLP1R (Homo sapiens, UniProt P43220); ligand displacement).
`CC(C)(C)C(=O)OCOP(=O)(OCOC(=O)C(C)(C)C)C1CCCN(O)C1=O` (stereo not drawn) gave a log GI50 of -5.41 log M (SF-295).
`CC[C@H](C)[C@H](NC(=O)[C@H](CCCNC(=N)N)NC(=O)[C@H](CCCNC(=N)N)NC(=O)[C@H](CC(C)C)NC(=O)[C@H](CCC(=O)O)NC(=O)[C@H](CCC(N)=O)NC(=O)[C@H](C)NC(=O)[C@@H](NC(=O)[C@H](CNC(=O)CCl)NC(=O)[C@H](CCCNC(=N)N)NC(=O)[C@H](CCCNC(=N)N)NC(=O)[C@@H]1CCCN1C(=O)[C@H](CCCNC(=N)N)NC(=O)[C@H](CCCNC(=N)N)NC(=O)[C@@H]1CCCN1C(=O)[C@H](CCCNC(=N)N)NC(=O)[C@H](CCCNC(=N)N)NC(=O)[C@@H]1CCCN1C(=O)[C@H](CCCNC(=N)N)NC(=O)[C@H](CCCNC(=N)N)NC(=O)[C@@H]1CCCN1C(=O)[C@H](CCCNC(=N)N)NC(=O)[C@H](CCCNC(=N)N)NC(=O)[C@@H]1CCCN1C(C)=O)[C@@H](C)CC)C(=O)NCC(=O)N[C@@H](CC(=O)O)C(=O)N[C@@H](CCC(=O)O)C(=O)N[C@@H](Cc1ccccc1)C(=O)N[C@@H](CC(N)=O)C(=O)N[C@@H](C)C(=O)N[C@@H](Cc1ccc(O)cc1)C(=O)N[C@@H](Cc1ccc(O)cc1)C(=O)N[C@@H](C)C(=O)N[C@@H](CCCNC(=N)N)C(=O)N[C@@H](CCCNC(=N)N)C(N)=O` gave a Kd of 0.0127 µM (BCL2L1 (Homo sapiens, UniProt Q07817); binding, ITC).
With `CC[C@H](C)[C@H](NC(=O)[C@H](CO)NC(=O)[C@H](CC(N)=O)NC(C)=O)C(=O)N[C@@H](CCCNC(=N)N)C(=O)N[C@@H](CCCCN)C(=O)N[C@@H](Cc1ccccc1)C(=O)N[C@@H](COP(=O)(O)O)C(=O)N[C@H](C(=O)N[C@H](C(=O)N[C@@H](CCC(N)=O)C(=O)N[C@@H](CCCCN)C(=O)N[C@H](C(=O)N1CCC[C@H]1C(=O)NCC(=O)NCC(=O)NCC(=O)NCC(=O)NCC(=O)N[C@@H](CCC(N)=O)C(=O)N[C@@H](C)C(=O)N[C@@H](CCCNC(=N)N)C(=O)N[C@@H](CCCNC(=N)N)C(=O)N[C@@H](CCCNC(=N)N)C(=O)N[C@@H](CCC(N)=O)C(=O)N[C@@H](COP(=O)(O)O)C(=O)N[C@H](C(=O)N[C@@H](CC(C)C)C(=O)N[C@@H](CC(N)=O)C(=O)N[C@@H](CC(C)C)C(=O)N[C@@H](CCSC)C(=O)N[C@H](C(N)=O)[C@@H](C)O)C(C)C)[C@@H](C)O)C(C)C)[C@@H](C)CC` the Kd was 31 µM (14-3-3 protein beta/alpha (Homo sapiens, UniProt P31946); binding, ITC; pH 7.4).
With `O=C(CF)N[C@H]1[C@H]([C@H](O)[C@H](O)CNC(=O)c2ccc(Oc3ccccc3)cc2)O[C@@](OCc2cccc(Cl)c2Cl)(C(=O)O)C[C@@H]1O` the Kd was 0.32 µM (CD22 (Homo sapiens, UniProt P20273); binding, ITC).
The Kd of `CCCc1cc2cc(-n3nc(C(F)(F)F)c4c3CC(C)(C)CC4=O)cc(N3CCC(O)CC3)c2c(=O)[nH]1` is reported as 0.587 µM (HSP90AB1 (Homo sapiens, UniProt P08238); fluorescence polarization; 24 h, 4 °C, added: FITC-geldanamycin tracer).
For `CC[C@H](C)[C@H](NC(=O)[C@H](CCC(=O)O)NC(=O)[C@H](C)NC(=O)[C@H](CCCCN)NC(=O)[C@H](CC(C)C)NC(=O)[C@@H](NC(=O)[C@H](CCC(=O)O)NC(=O)[C@@H](NC(=O)[C@H](CCC(=O)O)NC(=O)[C@H](CC(=O)O)NC(=O)[C@H](C)NC(=O)[C@@H](NC(=O)[C@@H](NC(=O)[C@H](C)NC(=O)[C@H](C)NC(C)=O)C(C)C)[C@@H](C)O)[C@@H](C)O)C(C)C)C(=O)N[C@H]1CSCc2cccc(c2)CSC[C@@H](C(=O)N[C@@H](CCC(N)=O)C(=O)N[C@H](C(=O)N[C@@H](CCC(N)=O)C(=O)N[C@@H](CCC(=O)O)C(=O)N[C@@H](CCC(=O)O)C(=O)N[C@@H](CC(=O)O)C(=O)N2CCC[C@H]2C(=O)N[C@@H](CC(N)=O)C(=O)NCCC(=O)N[C@@H](CCCCNC(=O)CCCC[C@@H]2SC[C@@H]3NC(=O)N[C@@H]32)C(N)=O)C(C)C)NC(=O)[C@H](C(C)C)NC(=O)[C@H](C)NC(=O)[C@H](CCCCN)NC1=O`, the Kd was 0.176 µM (Myc proto-oncogene protein, bHLH-LZ region (MYC, Homo sapiens, UniProt P01106); binding, biolayer interferometry).
With `C=C1NC(=O)[C@H](CO)NC(=O)[C@H](CSCC(N)=O)NC(=O)CNC(=O)[C@H](Cc2ccc(O)cc2)NC(=O)[C@H](C)NC(=O)[C@H](CO)NC(=O)[C@H](CC(=O)O)NC(=O)CNC(=O)[C@H](CC(C)C)NC(=O)[C@H](Cc2c[nH]c3ccccc23)NC(=O)[C@H](Cc2c[nH]c3ccccc23)NC(=O)c2ccc(-c3nc(C(=O)OC)cs3)nc2-c2csc1n2` the Kd was 0.028 µM (TNIK (Homo sapiens, UniProt Q9UKE5); binding, SPR).
`CN(C)[C@H]1C[C@@]23CC[C@@]4(O2)C(=CC[C@]2(C)[C@@H](c5ccc6ccncc6c5)CC[C@H]24)C=C3[C@@H](O)[C@@H]1O` gave an inhibition of -30.3% (ATM (Homo sapiens, UniProt Q13315); ATP probe labelling, inhibitor, KiNativ profiling; 0.1 µM).
`O=C1NC2(CC2)COc2ncc(F)cc2[C@H]2COCCN2c2ccn3ncc1c3n2` — result for “serum total bilirubin”: 1.3 ± 0.2 µmol/L (Sprague-Dawley rat, male, serum; oral, 5 mg/kg/day, end of recovery, 4-week subacute toxicity).
With `C=C(c1ccccc1)[C@@H](N)P(=O)(O)O` the Kd was 0.17 µM (PAL1 (Petroselinum crispum, UniProt P24481, Y110F); ITC).
For `CC[C@H](C)[C@H](NC(=O)[C@H](CO)NC(=O)[C@H](Cc1ccc(O)cc1)NC(=O)[C@H](Cc1ccc(O)cc1)NC(=O)[C@H](CC(N)=O)NC(=O)CNC(=O)[C@H](CO)NC(=O)[C@H](Cc1ccc(O)cc1)NC(=O)[C@H](CO)NC(=O)[C@H](CO)NC(=O)[C@H](CC(N)=O)NC(=O)COCCOCCNC(=O)CN1CCN(CC(=O)O)CCN(CC(=O)O)CCN(CC(=O)O)CC1)C(=O)N[C@@H](CC(C)C)C(N)=O` [copper-64 labelled], the tissue uptake was 13.8 %ID/mL (dynamic PET; KPC mouse Ptf1a-CreER tdTomato, metastases; intravenous, dose not given, 1.6 min, 84 d after tamoxifen).
`CC(C)[C@@H]1NC(=O)[C@H](Cc2ccccc2)NC(=O)CSC[C@@H](C(N)=O)NC(=O)[C@H](CCC(=O)O)NC(=O)[C@H](CO)NC(=O)[C@H](Cc2c[nH]c3cccc(Cl)c23)NC(=O)[C@H](C(C)C)NC(=O)[C@H](C(C)C)NC(=O)[C@H](Cc2ccc(O)cc2)NC(=O)[C@H](CC(=O)O)NC(=O)[C@H](Cc2c[nH]c3ccccc23)NC(=O)[C@H](Cc2ccc(O)cc2)NC(=O)[C@H](Cc2c[nH]c3ccccc23)NC(=O)[C@H](CCC(=O)O)NC1=O` gave a Kd of 0.106 ± 0.005 µM (Interleukin-1 receptor-like 2, D1-D2 domains (IL1RL2, Homo sapiens, UniProt Q9HB29); SPR; IL-36R domains D1-D2).
`CCCc1cc2cc(-n3nc(C(F)F)c4c3CC(C)(C)CC4=O)cc(N3CCC(O)CC3)c2c(=O)[nH]1` gave a Kd of > 100 µM (HSP90AA1 (Homo sapiens, UniProt P07900); fluorescence polarization; 24 h, 4 °C, added: FITC-geldanamycin tracer).
`COc1ccccc1-c1n[nH]c2nc(NC3CCN(C(=O)Cc4ccc(F)cc4F)CC3)ncc12` gave a relative abundance of 0.84 (bead binding, competition bead pull-down, item: LINJ.05.0550; Leishmania donovani extract; 10 µM; baseline: vehicle).
The Kd of `CSCC[C@H](NC=O)C(=O)N[C@@H](CCCNC(=N)N)C(=O)N[C@H](C(=O)NCC(=O)N[C@@H](CC(N)=O)C(=O)N[C@@H](C)C(=O)N[C@@H](CC(N)=O)C(=O)NCC(=O)NCC(=O)N[C@@H](CCCCNC(=S)Nc1ccc2c(c1)C(=O)OC21c2ccc(O)cc2Oc2cc(O)ccc21)C(=O)O)[C@@H](C)O` is reported as > 1000 µM (Uncharacterized protein YejA (yejA, Escherichia coli, UniProt P33913, Y509A); binding, fluorescence polarisation; YejA variant Y491A).
The relative abundance of `COc1ccccc1-c1n[nH]c2nc(N[C@H]3CC[C@H](NS(=O)(=O)CC(C)C)CC3)ncc12` is reported as 1 (bead binding, competition bead pull-down, item: LINJ.26.1220; Leishmania donovani extract; 10 µM; baseline: vehicle).
`CC(C)C[C@H](NC(=O)[C@H](CCCNC(=N)N)NC(=O)[C@H](CO)NC(=O)[C@H](CC(N)=O)NC(=O)c1ccc2c(c1)C(=O)OC21c2ccc(N(C)C)cc2Oc2cc(N(C)C)ccc21)C(=O)NCC(=O)N[C@@H](CC(N)=O)C(=O)NCC(=O)N[C@H](C(=O)N[C@@H](CC(C)C)C(=O)N[C@@H](Cc1ccc(OP(=O)(O)O)cc1)C(=O)N[C@@H](C)C(=O)N[C@@H](CO)C(=O)N[C@H](C(=O)N[C@@H](CC(N)=O)C(=O)N1CCC[C@H]1C(=O)N[C@@H](CCC(=O)O)C(=O)N[C@@H](Cc1ccc(O)cc1)C(=O)N[C@@H](CC(=O)O)C(=O)O)C(C)C)C(C)C` gave a Kd of 0.048 µM (Tyrosine-protein kinase ABL2, SH2 domain (ABL2, Homo sapiens, UniProt P42684); binding).
